Published values pooled from the literature.
Protocols differ between the studies behind these lines. Several values in a cell are separate wells, animals, samples, runs or records. ± gives the spread as reported.

For `Cn1ncnc1[C@H]1c2n[nH]c(=O)c3cc(F)cc(c23)N[C@@H]1c1ccc(F)cc1`, the AUCτ was 132 ng·h/mL (human patients, plasma; oral, 600 µg/m2 twice daily day 1, day 5, dose level DL3, median, together with: temozolomide 20 mg/m2 daily days 2-6).
`CC1(C)OC[C@@H](C2CCCCC2)N[C@@H]1c1ccc(Cl)c(Cl)c1` gave a solubility of less than 4 µM (shake-flask, LC-HRMS; aqueous buffer; 16 h, pH 6.8).
For `Cn1cc(Nc2nc(N)nc(-c3cccc(-n4ccc5cc(C6CC6)cc(F)c5c4=O)c3CO)n2)cn1`, “drug-related nausea subjects” read 0% (healthy subjects; oral, 300 mg tablet, fasted).
`CCN1CCN(Cc2ccc(NC(=O)c3ccc(C)c(NC(=O)c4cncc(-c5cccs5)c4)c3)cc2C(F)(F)F)CC1` gave an apparent clearance of 51 mL/min/kg (C57BL/6 mice, epithelial lining fluid; intraperitoneal, 15 mg/kg).
Under “patients with adverse event”, `CCn1cc(C(=O)N2CCOCC2)c(=O)c2cc(NC3Cc4ccccc4C3)cnc21` is recorded as 11.8% (human, GAD, PTSD or social anxiety disorder; dose not given, TEAE Headache, pooled phase trials).
Under “AUC(0-t), geometric mean”, `N#CN1C[C@H](n2nc(-c3ccc(Oc4ccc(Cl)cn4)cc3)c(C(N)=O)c2N)CCC12CC2` is recorded as 19900 ng·h/mL (human, fasted, plasma; oral, 600 mg, i=12).
The MRT(0-inf) of `CSc1ccccc1C(=O)NCCn1cc(C(=O)NCc2cccc(C)n2)c(=O)c2cc3c(cc21)OC(F)(F)O3` is reported as 1.58 h (Sprague-Dawley rat, male, plasma; intravenous, 20 mg/kg of parent drug).
`CC(C)N(CCCCOCC(=O)NS(C)(=O)=O)c1cnc(-c2ccccc2)c(-c2ccccc2)n1` — result for “k21 rate constant”: 0.035 h⁻¹ (population PK model; healthy human, plasma; oral).
Under “red cell distribution width”, `CCc1cc(C(=O)NC)c2nccc(N3CCc4c(cc(Cn5ccnc5)cc4-c4cn(C)nc4C(F)(F)F)C3=O)c2c1` is recorded as 12.5 ± 0.47% (Sprague Dawley rats; oral, 100 mg/kg twice daily, 7 days).
`N#Cc1cc([C@H]2COC[C@@H](c3cc(Cl)cc(Cl)c3)N2)ccc1F` gave a solubility of less than 4 µM (shake-flask, LC-HRMS; aqueous buffer; 16 h, pH 6.8).
With `COc1ccc2c(c1)CN(C(=O)CCN1CCC(Cc3ccccc3)CC1)CC[S@@+]2[O-]` the QT interval was 200 ± 7 ms (telemetry; conscious male beagle dogs; intravenous, 2 mg/kg, 0.5 h).
`N#Cc1ccc2c(c1)[C@H]1CCCN(C(=O)c3ccc4[nH]cnc4c3)[C@H]1C2` has an SHBG level of 22.7 nmol/L (human males; 240 mg, day 7).
For `Cn1cnc2ccc(Nc3c(F)ccc(NS(=O)(=O)N4CC(F)C4)c3Cl)c(Cl)c2c1=O`, “patients with adverse events” read 17% (item: any adverse event any grade; human patients; dose not given, monotherapy trial; baseline: patients).
`CCOC(=O)N1C[C@@H](c2ccc(C(F)(F)F)cc2)N[C@@H](c2cnc(-c3ccccc3)nc2)C1` has a solubility of less than 4 µM (shake-flask, LC-HRMS; aqueous buffer; 16 h, pH 6.8).
`Cc1cc(-c2nccc3c2ccn3CC(=O)Nc2ccc(-c3cnccn3)cn2)ccn1` — result for “subjects with blurred vision”: 12.5% (human; 5 mg once daily, multiple ascending dose).
The placental accumulation of `CCCCc1ccc(-c2ccc(C#N)cc2)cc1` is reported as 484 ± 601 ng/g (Sprague-Dawley rat, female, placenta; 5000 ng/mL in perfusate, 50 (unit not given), high dose, mixture of 21 LCMs).
Under “participants with procedural pain”, `O=C(COc1ccc(Cl)cc1)NC12CC(c3nnc([C@H]4C[C@@H](OC(F)(F)F)C4)o3)(C1)C2` is recorded as 66.7% (human both sexes; oral, 45 mg once daily, 14 days).
With `COCCOc1cnc2ccn([C@H](C)c3nnc4c(F)cc(-c5cnn(C)c5)cn34)c(=O)c2c1` the Ctrough was 40 ng/mL (patients, plasma; oral, 25 mg once daily, day 28 24 h postdose).
For `CCCCCN1C[C@H](O)[C@@H](O)[C@H](O)[C@@H]1CO`, “average plasma concentration” read 12.9 µM and ~13 µM (LC-MS/MS, item: total compound; mouse Hexb-/-, plasma; oral, food admix, 300 mg/kg/day, about 75 days).
`Cc1cc([C@H]2C[C@H]3[C@@H](CF)SC(N)=N[C@@]3(c3ccc(F)cc3F)CO2)on1` has a CSF concentration of 170 nM (129/SVE wild-type mouse, male; subcutaneous, 30 mg/kg, 3 h).
With `CCC[C@H](C)[C@H]1CN(C(=O)OCC)C[C@@H](c2cc(Cl)cc(Cl)c2)N1` the solubility was less than 4 µM (shake-flask, LC-HRMS; aqueous buffer; 16 h, pH 6.8).
`CCC(=O)N(CCC(c1ccc2c(c1)OCO2)c1ccccc1OC)Cc1ccccc1` (stereo not shown) has an MPV of 5.72 fL (female athymic nude mouse, blood; i.p., 60 mg/kg twice daily, 14 days, group mean).
Under “decreased WBC count incidence”, `Cc1c(C(=O)O)ccc2c3n(nc12)[C@@H]1[C@H](C3)N(CC2CC2)[C@@]2(C(=O)Nc3cc(Cl)ccc32)[C@H]1c1cccc(Cl)c1F` is recorded as 24.1% (human patients phase Ia; oral, dose not given, all grades, all patients).
The Cmin of `C[C@H](CCC(=O)NCC(=O)O)[C@H]1CC[C@H]2[C@@H]3CC[C@@H]4C[C@H](OS(=O)(=O)O)CC[C@]4(C)[C@H]3C[C@H](O)[C@]12C` is reported as 112 ± 27 nM (human, plasma; baseline).
For `CCc1c2c(nc3ccc(OC(=O)N4CCC(N5CCCCC5)CC4)cc13)-c1cc3c(c(=O)n1C2)COC(=O)[C@]3(O)CC`, “cumulative urinary excretion” read 11% (male Sprague-Dawley rat, urine; i.v., 10 mg/kg; baseline: dose).
`O=S(=O)(NCc1ccccn1)c1ccc(Cl)c(Cl)c1Cl` has a solubility of 10.7 µg/mL (aqueous buffer; pH 7.4).
Under “incidence of Pyrexia”, `NC1(C(=O)N[C@@H](CCO)c2ccc(Cl)cc2)CCN(c2nc[nH]c3nccc2-3)CC1` is recorded as 0% (metastatic CRPC patients; 480 mg b.i.d., grade 3 to 4, treatment-related, together with: enzalutamide 160 mg daily).
Under “urinary sodium excretion change”, `Cc1ccc([C@@H]2O[C@H](CO)[C@@H](O)[C@H](O)[C@H]2O)cc1Cc1ccc(-c2ccc(F)cc2)s1` is recorded as 29.5 mEq (Japanese type 2 diabetes patients; 100 mg, day 3, 24 h urine collection; baseline: baseline).
The equilibrium solubility of `CC[C@H](C)C(=O)N1CCC(NC(=O)Nc2ccc(OC(F)(F)F)c(F)c2)CC1` is reported as 37700 µg/mL (Gelucire 44/14 melt; 75 °C).
For `O=C(Nc1ccc(OC(F)(F)Cl)cc1)c1cnc(N2CC[C@@H](O)C2)c(-c2ccn[nH]2)c1`, “patients with event” read 5.6% (item: Bilirubin increase, grade ≥2; human patients, dose-finding study; oral, sample F of sample B patients).
The solubility of `CCc1ccccc1NC(=O)CSc1nnc(-c2cccc(OC)c2)n1C` is reported as 33.3 µg/mL (aqueous buffer; pH 7.4).
For `O=c1[nH]c(=O)n([C@H]2C[C@H](O)[C@@H](CO)O2)cc1CCCCC[18F]`, the biodistribution was 1.79 ± 0.67 %ID/g (male CD-1 nu/nu mice, RG2 tumour, bone; intravenous, dose not given, 2 h).
`COC(=O)c1ccccc1C1=c2cc3c4c(c2Oc2c1ccc1cccc(O)c21)CCC[N+]=4CCC3.[Cl-]` gave a Stokes shift of 127 nm (12.5 mM aqueous NaOH; pH 12.1, 10% DMSO).
`CCOc1c([C@H](C)n2nc(C)c3c(N)ncnc32)cc(Cl)c(F)c1[C@@H]1CNC(=O)C1`: “share of patients” 100% (item: ΔQTcF ≤ 30 ms; previously treated B-cell malignancy; oral, 30 mg once daily, overall population).
Under “treatment-emergent adverse events”, `O=C(Nc1nc2cccc(-c3ccc(CN4CCS(=O)(=O)CC4)cc3)n2n1)C1CC1` is recorded as 45% (item: any adverse event; human rheumatoid arthritis patients; oral, 300 mg once daily, 4 weeks, regardless of relatedness).
For `CNCCOC12CC3(C)CC(C)(CC(Cn4ncc(-c5ccc(N6CCc7cccc(C(=O)Nc8nc9ccccc9s8)c7C6)nc5C(=O)O)c4C)(C3)C1)C2`, “mean arterial pressure change” read -5% (beagle dog, male, anaesthetised; intravenous bolus, 0.03 mg/kg, 45 min; baseline: baseline).
`CCC(CC)[C@@H]1COC[C@]2(CC[C@H](c3ccccc3)CC2)N1` gave a solubility of less than 4 µM (shake-flask, LC-HRMS; aqueous buffer; 16 h, pH 6.8).
Under “brain-to-plasma ratio (Kp)”, `CC(C)[C@@H](CS(=O)(=O)C(C)C)N1C(=O)[C@@](C)(CC(=O)O)C[C@H](c2cccc(Cl)c2)[C@H]1c1ccc(Cl)cc1` is recorded as 0.265 (FVB mouse, Abcb1a/b knockout, brain, plasma; intravenous, 20 mg/kg).
For `CCOC(=O)C1=C(CN2CCC[C@@H]2C(=O)Nc2ccc(B(O)O)cc2)NC(c2nccs2)=N[C@H]1c1ccc(F)cc1Br`, the AUC(0-t) was 720 ± 105 ng·h/mL (ICR mouse, plasma; intravenous, 2 mg/kg).
With `O=c1[nH]c(=O)n([C@H]2C[C@H](O)[C@@H](CO)O2)cc1CCCC[18F]` the biodistribution was 0.24 ± 0.07 %ID/g (male CD-1 nu/nu mice, RG2 tumour, heart; intravenous, dose not given, 2 h).
Under “participants with TEAE”, `Cc1ccc(Sc2ccccc2N2CCNCC2)c(C)c1` is recorded as 0% (item: Somnolence; healthy adult women; oral, 5 mg daily, 12 days).
`COc1ccc([C@@H](O)c2cc(-c3ncnc4cc(N5CCOCC5)ccc34)c(F)cc2Cl)nn1` — result for “rectal tenesmus TEAE”: 0% (locally advanced rectal cancer; oral, 50 mg, together with: capecitabine and radiotherapy).
`Cc1cc(NC2CCN(C(=O)OC3CCN(C(=O)/C=C/CN(C)C)C3)CC2)n2ncc(C(C)C)c2n1` (stereo not shown) — result for “patients with adverse event”: 18% (Phase I dose escalation CTCAE v4.0, item: Hyponatremia; patients with advanced solid tumours; dose not given, TIW dosing any grade).

Some of these lines once more:
Under “participants with TEAE”, `Cc1ccc(Sc2ccccc2N2CCNCC2)c(C)c1` is recorded as 0% (item: Somnolence; healthy adult women; oral, 5 mg daily, 12 days).
Under “urinary sodium excretion change”, `Cc1ccc([C@@H]2O[C@H](CO)[C@@H](O)[C@H](O)[C@H]2O)cc1Cc1ccc(-c2ccc(F)cc2)s1` is recorded as 29.5 mEq (Japanese type 2 diabetes patients; 100 mg, day 3, 24 h urine collection; baseline: baseline).
`COc1ccc([C@@H](O)c2cc(-c3ncnc4cc(N5CCOCC5)ccc34)c(F)cc2Cl)nn1` — result for “rectal tenesmus TEAE”: 0% (locally advanced rectal cancer; oral, 50 mg, together with: capecitabine and radiotherapy).
